Measurements from different studies.
Each numbered part is a random draw from the data of one study; scales do not carry over between parts.

Series 1
Target: Histone acetyltransferase KAT6A, winged helix 2, GST fusion (KAT6A, Homo sapiens, UniProt Q92794, residues 85-181)
Technique: protein binding microarray
Molecule type: double-stranded DNA, one strand shown
Matrix: in vitro
Concentration: not given
Notes: 8-mer, flanks averaged, mean of 2 arrays, mostly near background
Reference: not given
Direction: higher = stronger binding
Target sequence (chain): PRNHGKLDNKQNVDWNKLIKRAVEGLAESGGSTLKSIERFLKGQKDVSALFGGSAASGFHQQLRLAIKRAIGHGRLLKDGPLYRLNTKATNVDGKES
The E-score of `GCACGAAC` is reported as 0.14.
The E-score of `AGATTTTA` is reported as -0.0645.
`AGCCGCGA` has an E-score of 0.0711.
For `TCTTCCCA`, the E-score was -0.0919.
`AAGTTTAT` has an E-score of -0.111.
`ACATTAAC` gave an E-score of -0.206.
`ACAATGCT` has an E-score of -0.119.
With `CTGTTAAA` the E-score was -0.035.
`GATGTCCC` gave an E-score of 0.00831.
With `ATATGGGC` the E-score was -0.0691.
For `AGCAGAGC`, the E-score was 0.133.
`GCGACAGC` gave an E-score of 0.155.
`CCCTAGAC` has an E-score of 0.00259.
`AAACTGCC` gave an E-score of 0.196.
`GCCCTTAA` gave an E-score of 0.111.
With `CGCATCAC` the E-score was -0.0716.
`ATTGTCCC` has an E-score of -0.177.
For `TCTGTACA`, the E-score was -0.0992.
The E-score of `AATTGTGT` is reported as -0.107.
The E-score of `ACTATGGC` is reported as -0.0291.
For `ATCGTTGG`, the E-score was 0.00834.

Series 2
Target: TAR DNA-binding protein 43, full length, His tag (TARDBP, Homo sapiens, UniProt Q13148, residues 1-414)
Technique: RNA Bind-n-Seq
Molecule type: RNA
Matrix: in vitro
Concentration: 20 nM
Notes: 6-mer, flanks averaged, single round
Together with: 150 mM KCl
Reference: input library
Direction: higher = stronger binding
`ACACAU`: “6-mer enrichment (R)” 0.65.
`GUAGCU` — result for “6-mer enrichment (R)”: 0.814.
`GGCAUU`: “6-mer enrichment (R)” 0.893.
For `GACGGG`, “6-mer enrichment (R)” read 4.33.
For `ACAGUG`, “6-mer enrichment (R)” read 0.958.
For `UGAAUA`, “6-mer enrichment (R)” read 0.688.
Under “6-mer enrichment (R)”, `AAGAGU` is recorded as 0.916.
`GUUCAU`: “6-mer enrichment (R)” 0.595.
`UAGUUA`: “6-mer enrichment (R)” 0.616.
Under “6-mer enrichment (R)”, `AUAGCC` is recorded as 0.64.
For `AGAUUU`, “6-mer enrichment (R)” read 0.563.
For `GGGAGG`, “6-mer enrichment (R)” read 10.6.
Under “6-mer enrichment (R)”, `CGACCG` is recorded as 0.857.
`CAGGAG` — result for “6-mer enrichment (R)”: 1.7.
`UUGAAU`: “6-mer enrichment (R)” 0.742.
`CCCUUC` — result for “6-mer enrichment (R)”: 0.62.

Series 3
Target: RING finger protein unkempt homolog, zinc fingers 1-6, GST-SBP tag (UNK, Homo sapiens, UniProt Q9C0B0, residues 30-357)
Technique: RNA Bind-n-Seq
Molecule type: RNA
Matrix: in vitro
Concentration: not given
Notes: RNA with constant flanks, ends assumed
Reference: input RNA pool
Direction: higher = stronger binding
Construct (chain): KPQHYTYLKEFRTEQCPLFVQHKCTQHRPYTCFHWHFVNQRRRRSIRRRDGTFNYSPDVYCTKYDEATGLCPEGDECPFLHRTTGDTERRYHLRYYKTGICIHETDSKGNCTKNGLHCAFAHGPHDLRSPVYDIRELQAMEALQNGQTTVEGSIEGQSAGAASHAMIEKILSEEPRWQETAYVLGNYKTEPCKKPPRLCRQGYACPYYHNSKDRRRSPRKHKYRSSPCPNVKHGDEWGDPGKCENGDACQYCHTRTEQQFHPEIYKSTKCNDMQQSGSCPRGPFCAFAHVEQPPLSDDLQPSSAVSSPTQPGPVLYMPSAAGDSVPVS
`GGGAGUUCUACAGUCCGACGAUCGGGCUCCAGGACUCUCAAGCUGGCAUCAUAUUAUUUGUUAUUUAAAAGACACAAUUAUUUCCGGCCGAUCUUUUUUUUUAAUGAGGUGGGGUAAGGCUGUGACUUUUGAUCUAAACAAAACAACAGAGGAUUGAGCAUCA` gave a bound/input enrichment of 0.219 ratio.
`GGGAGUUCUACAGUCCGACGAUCUGUGAAAGAAAGGUUUUGCAUUCUGUCUACACAUUCGGCAGGAAUGAGUCCAGUUCCCUGUUCCGAUUCUUUGAGUGUAAUUUAUUGUGAAUGGCAGUUCAAAAUUCAGUUGAUCGGUCUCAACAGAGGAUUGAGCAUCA` has a bound/input enrichment of 0.133 ratio.
For `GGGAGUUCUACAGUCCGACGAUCAAUAGAGAUUUGUCCACACCUGGCCUGGAGAAGGACAGUGGAGGGAAGACACCUGGUGACUUCCGCUAUGCCUAUCAAAAGCCUGAGGAAACAACCAGGUCCCCAGAUGAAGAAGAUUAUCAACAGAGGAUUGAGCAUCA`, the bound/input enrichment was 0.235 ratio.
`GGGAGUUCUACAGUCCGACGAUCAAUGGUGAAUCAGGAAAGGAUGUGGAUGAUGACAAAGAUGCAAAUAAGUCUGAGAUCAGCUCCGUGUUUGAAAUUGCUCUGAAGCGAAAUAUGCCUGUCAGUUUUGAGGUUAUUAAAGAACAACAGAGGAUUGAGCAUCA` has a bound/input enrichment of 0.143 ratio.
`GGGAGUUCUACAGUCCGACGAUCGAGAAUCAGGAAUCAUUGAGAUCUCUGGGAGCAUGGAACCUGGAGAAUUUGAGAUCUCCAGAGGAGGCCGACAAGGAAAGUCAAAGGAAUCUGGAAGAGGAAGAGAACCUGGGAAAGGGACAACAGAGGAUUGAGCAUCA` gave a bound/input enrichment of 0.353 ratio.
For `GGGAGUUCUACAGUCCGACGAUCUUCUUCAAACCUGGUAGUCAGUUUUUGUAUUCAACUUUUGGCUAUACCCUACUGGCAGCCACCGCCGAGAGAGCUUCAGGAUGUAAAUAUUUGGACUAUAUGCAGAAAAUAUUCCAUGACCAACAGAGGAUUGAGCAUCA`, the bound/input enrichment was 0.119 ratio.
For `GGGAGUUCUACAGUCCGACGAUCAGUAUUAAAAAAAUCAUACAUGUGCUGGAGAAGGUCCAGUAUCUUGAACAAGAAGCCGAAGAAUUUGCCGGAAAAAAGACAGACAAAGCAUACUGGCUUCUGGAAGAAAUGCUAACCAAGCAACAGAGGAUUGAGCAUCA`, the bound/input enrichment was 0.2 ratio.
`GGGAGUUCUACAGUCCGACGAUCGAAAAAUACUUCCAAUUCCAAGAAGAGGGCAAGGAAGGAGAGAACAGGGCAGUUAUCCAUUACCGGGAUGAUGAGACCAUGUAUGUUGAGUCUAAAAAGGACAGAGUCACAGUAGUCUUCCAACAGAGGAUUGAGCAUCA` gave a bound/input enrichment of 0.239 ratio.
`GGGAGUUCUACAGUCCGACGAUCACAAAGCAGCUGACAGAAAUGCUUCCCAGCAUCCUCAACCAGCUUGGUGCAGACAGCCUGACCCGUUUAAGGAGACUGGCUGAAGCUCUGCCCAAACAAUCUGUGGAUGGAAAAGCACCCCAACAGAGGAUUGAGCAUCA` has a bound/input enrichment of 0.0846 ratio.
The bound/input enrichment of `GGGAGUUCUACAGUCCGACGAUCAAGCACUUUCAGCAGGCAAAAAUGAUCCUUGAAAAUAUCCCCAAUCCAGACCGUGAGGUCAGCCGAAUCCUGAAGGUUGCCAAGCCCAACUUUGUGGUUAUGAAGCUCUUAGCAGGAGGACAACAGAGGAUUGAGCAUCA` is reported as 0.177 ratio.
With `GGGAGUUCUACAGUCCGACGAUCAGUUUCUCCAGAGGAAGCAAUCAAAUGUGAGGACAAAUUCACAAAAUCCAAAACUGUUUACCGCAUUCUUCGCCAUGUUGCUGAGGUAUUAGAAUAUACCAAGGAUGAGCAGCUGGAGAGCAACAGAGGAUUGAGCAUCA` the bound/input enrichment was 0.139 ratio.

Series 4
Target: RNA binding protein fox-1 homolog 2, RRM domain, GST-SBP tag (RBFOX2, Homo sapiens, UniProt O43251-10, residues 100-194)
Technique: RNA Bind-n-Seq
Molecule type: RNA
Matrix: in vitro
Concentration: 365 nM
Notes: natural RNA segment, single round, ends assumed
Reference: no-protein control
Direction: higher = stronger binding
Target sequence (chain): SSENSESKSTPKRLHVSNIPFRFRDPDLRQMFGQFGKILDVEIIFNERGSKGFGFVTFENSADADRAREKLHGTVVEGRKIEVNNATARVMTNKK
`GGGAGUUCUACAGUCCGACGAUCUGAUGCUCACAUAUUCUGUGCCAUGGAGCAGGUUGAAGAUGAAAUAAAAGGUUGUUUGGAUUUUCUACGUACGGUAUAUAGCGUAUUUGGAUUUUCUUUUAAACUAAACCUGGAAUUCUCGGGUGCCAA` — result for “RBNS enrichment (R)”: 0.321.
`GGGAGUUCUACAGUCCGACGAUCAGUGUCUGGCUUUAACAUGUGAUUCCACAAGAGUAGAAGCAAGAAAGGUAUAUACUUUUAGGAGCCUAAAAAACAUUUCCAAACUAGCCCAAGCUAUCUCAACUACAGGAUGGAAUUCUCGGGUGCCAA` — result for “RBNS enrichment (R)”: 0.356.
For `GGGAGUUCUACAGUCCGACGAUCGUUUCCUGGCUGCUAGUGACCUGCUGUCUACUCCUCCCUCUACAUUGAGCUCUGUUGUAAAUACAUCGCACCAGAGGCCACUGUGACGCCGCUGUCUCCUCCUCUCCAUCUGGAAUUCUCGGGUGCCAA`, “RBNS enrichment (R)” read 0.605.
`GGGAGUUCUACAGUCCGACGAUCACUUCACAUUCAGAUUUAUGUUCCAUUUCUUUUGACUGAGAAAAGUUGAACGGUAUGCAUGGUGAAAGGAAGCUGUCUGCCUCUGACCUUUCCCCAGGCUAUGAAAAGGAUGGAAUUCUCGGGUGCCAA`: “RBNS enrichment (R)” 0.705.
Under “RBNS enrichment (R)”, `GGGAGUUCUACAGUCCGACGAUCAGUGGACCAGGAAGCGCCCCUUGCCUCUUAACGCAAACCACAGCAGCAACCUGAAGGGAUUCCUUCAGCUUACCUGGUAACCACAGCUAGUAACUAAAACACCCUUCUCUUGGAAUUCUCGGGUGCCAA` is recorded as 0.348.
Under “RBNS enrichment (R)”, `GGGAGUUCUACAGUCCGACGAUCUCAAGACCAGCUUGGCCAACAUGGUGAAACCUCAUCUCUACUAAAAAUACAAAAAUUAGCCAAGUGUGAUGGCACAUACCUGUAAUCCCAGCUACUUGGAAUUGGAAAUCUGGAAUUCUCGGGUGCCAA` is recorded as 0.331.
Under “RBNS enrichment (R)”, `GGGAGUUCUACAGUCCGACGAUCCAUCCCCAAGAUGAGAGGCGAGCAUCCUGCCGAGUGAGCCUGCAGCAACAGCUCCUGAGGAAGGUGCCGGGAGGGGUGUCGCCUCUUCACGAGUGUUCUCCAGAGAAUCAUGGAAUUCUCGGGUGCCAA` is recorded as 0.366.
Under “RBNS enrichment (R)”, `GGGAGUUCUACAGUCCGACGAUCGGUCAGUUAAAUCUGUGAUAAUGGUUGGAAGUGGGUGGGGUUAUGAAAUUGUAGAUGUUUUUAGAAAAACUUGUGAAUGAAAAUGAAUCCAAGUGUUUCAUGUGAAGAUGUGGAAUUCUCGGGUGCCAA` is recorded as 4.02.
Under “RBNS enrichment (R)”, `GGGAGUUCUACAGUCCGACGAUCUUUUCAGCUAUUGCUUGUGAAAAAAAGCAAGACUAUGUCACUCUAUAGAAGGCUGUUAAAGUGACUCAGGCAGGAAUUAAUUAUUCUGUACCUAAGGGGUUACUUGUUUAUGGAAUUCUCGGGUGCCAA` is recorded as 0.418.
`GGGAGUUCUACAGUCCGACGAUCGCACAGAGAAGUGGCCACAGCCUUCCCACCCCACGACCAGAGACUGGCCUGGCCUCACUGCUUUCAAGGACACAGAUGUCUGCUACCCCUCUUGAACUUGGGUGGGGAACUGGAAUUCUCGGGUGCCAA` — result for “RBNS enrichment (R)”: 0.324.
For `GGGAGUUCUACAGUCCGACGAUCCUUGAGUGUGUCUGCGUGUUUACACCCAUCCCUCUUUGGGCGGCCCCCUGCUCUGCCCUCCACGGAAUUGGAUUCCAAGGGCUGUUCCAGACAACUGCCAACGUCACUGAUGGAAUUCUCGGGUGCCAA`, “RBNS enrichment (R)” read 0.397.
For `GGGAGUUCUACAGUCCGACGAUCGUCUCUAGAGGAUACUCAUCUGGAGUCUCUGAAGACUUGACCCAUAUUUCCAAGACCCUACAACUCCAGCCUUGCCCUAUGACAUCAUCAAGGAUCUCCACAGAGGUGACUGGAAUUCUCGGGUGCCAA`, “RBNS enrichment (R)” read 0.311.

Excerpt of the above (series 1):
With `CGCATCAC` the E-score was -0.0716.
`ATTGTCCC` has an E-score of -0.177.
For `TCTGTACA`, the E-score was -0.0992.
The E-score of `AATTGTGT` is reported as -0.107.
The E-score of `ACTATGGC` is reported as -0.0291.
For `ATCGTTGG`, the E-score was 0.00834.
